Measurements collected from several papers.
Protocols differ between the studies behind these lines. ± marks the error that the study gave.

| SMILES | assay | system | setting | how to read | quantity | result |
| --- | --- | --- | --- | --- | --- | --- |
| O=C(NCCCN(CCCCN(CCCNC(=O)c1cccc(=O)n1[O-])C(=O)c1cccc(=O)n1[O-])C(=O)c1cccc(=O)n1[O-])c1cccc(=O)n1[O-].[89Zr+4] | – | mouse, kidney | 1 h | – | tracer uptake | 1.05 %ID/g |
| Cn1c(=O)oc2ccc(-c3ccc(CC(C#N)NC(=O)C4CNCCCO4)c(F)c3)cc21 (stereo not shown) | – | human | oral, 10 mg once daily, TEAE, multiple ascending dose | – | bacterial test positive incidence | 0% |
| Cc1ccc(OCC(=O)N(Cc2cccs2)c2ccn[nH]2)cc1 | – | beagle dog, male, plasma | oral gavage, 10 mg/kg | – | dose-normalised AUC(0-last) | 11.9 ng·h/mL/mg/kg |
| Cc1ccccc1/N=N/c1ccc(/N=N/c2c(O)ccc3ccccc23)c(C)c1 | – | extracted rat blood QC samples | 0.2 µg/L, 8 h, room temperature, short-term stability | – | measured concentration | 0.227 µg/L |
| CC(=O)N[C@H](CSSC[C@H](N)C(=O)O)C(=O)N[C@H](C)C(=O)N[C@H](CCCNC(=N)N)C(=O)N[C@H](CCCNC(=N)N)C(=O)N[C@H](CCCNC(=N)N)C(=O)N[C@H](C)C(=O)N[C@H](CCCNC(=N)N)C(N)=O | – | human, healthy males, plasma | intravenous, 0.5 mg, geometric mean | – | volume of distribution at steady state | 112 L |
| O=C(/C=C/c1ccc(O)c(O)c1)NCCCCCCCC[P+](c1ccccc1)(c1ccccc1)c1ccccc1 | – | human, adrenal gland | concentration not given | – | bioaccumulation | 61.4% |
| CC(C)(O)c1ncc([S@](N)(=O)=NC(=O)Nc2c3c(cc4c2CCC4)CCC3)s1 | – | healthy human, fed | oral, 50 mg twice daily, day 1, tablet formulation, geometric mean | – | Cmax | 3940 ng/mL |
| COC(=O)c1ccc2c(c1)NC(=O)/C2=C(\Nc1ccc2c(c1)CCN2C(=O)CN1CCOCC1)c1ccccc1 | – | Caco-2 | 20 µM, 2 h | – | Papp A→B | 0.04 ×10⁻⁶ cm/s |
| [2H]C([2H])([2H])Oc1cc2c(cc1OC([2H])([2H])[2H])[C@H]1CC(=O)[C@H](CC(C)C)CN1CC2 | item: somnolence | human | oral, 25 mg | – | subjects with adverse event | 19% |
| COc1cc(N2CCN(C(=O)C3CCCN3)CC2)ccc1Nc1ncc(Cl)c(Nc2ccccc2P(C)(C)=O)n1 (stereo not shown) | – | mouse, plasma | oral, 10 mg/kg | – | CL/F | 31.5 mL/min/kg |
| Cc1cccc(-c2cccc(C)n2)n1.Cc1cccc(-c2cccc(C)n2)n1.[Cl-].[Cl-].[Ru+2].c1ccc(-c2ccnc3c2ccc2c(-c4ccccc4)ccnc23)cc1 | – | phosphate buffer with NaCl | concentration not given, pH 6.0, 37 °C, dark, dialysis | – | total release from nanoassemblies | 72.5% |
| COc1cc(NC(C)=O)c2c(c1O)-c1c(OC)c(OC)cc3c1C(C2)N(C)CC3 (stereo not shown) | – | rat liver homogenate | 100 µg/mL, 4 h, room temperature, short-term storage | – | remaining compound | 93.7 ± 1.9% |
| CCCCCCCCCCCCCNCC(=O)N(CC(=O)N(CCCCN)CC(=O)N(CCN)CC(=O)N(CC(N)=O)CC1CCCO1)CC1CCCO1 (stereo not shown) | preparative RP-HPLC C18 | water to acetonitrile gradient | 0.05% TFA in eluent | higher = more hydrophobic | acetonitrile at elution | 67.3% |
| NC[C@@H](C(=O)Nc1ccc(-c2cn[nH]c2)cc1)c1ccccc1 | OECD 405 eye irritation | New Zealand White rabbit, eye | topical, 0.1%, 73 h (day 4) | direction not given | total eye irritation score | 1 |
| CC(=O)N[C@@H](Cc1cnc[nH]1)C(=O)N[C@H](Cc1ccccc1)C(=O)N[C@@H](CCCNC(=N)N)C(=O)N[C@@H](Cc1c[nH]c2ccccc12)C(=O)NCCCOCCOCCOCCCNC(=O)COCC(=O)N[C@@H](Cc1cnc[nH]1)C(=O)N[C@H](Cc1ccccc1)C(=O)N[C@@H](CCCNC(=N)N)C(=O)N[C@@H](Cc1c[nH]c2ccccc12)C(N)=O | – | male mice | intracerebroventricular, 5 nmol, fasting-refeeding | – | ambulatory activity | no effect |
| COCCOCCOCCOCCC(=O)NCc1cc(CNC(=O)CCOCCOCCOCCOC)cc(-c2cc3cc4nc(c(-c5ccc(CCC(=O)O)cc5)c5[nH]c(cc6nc(c(OC)c2[nH]3)CC6(C)C)cc5-c2cc(CNC(=O)CCOCCOCCOCCOC)cc(CNC(=O)CCOCCOCCOCCOC)c2)CC4(C)C)c1 | – | DMF | room temperature | – | singlet excited-state lifetime | 3.74 ns |
| OCc1cn(Cc2ccc(-c3noc(-c4ccc(OCC[18F])c(C(F)(F)F)c4)n3)cc2)nn1 | – | Lewis rats, female, striatum | intravenous, 5 min | – | brain uptake | 0.47 %ID/g |
| COc1cc2c(cc1OC)CN(CCCCn1ccc3cc(OCC[18F])ccc31)C2 | – | male CD-1 mouse, liver | intravenous, 2 h | – | tracer uptake | 14.6 %ID/g |
| CNc1cc(OC)c(Nc2nccc(-c3cn(C4CC4)c4ccccc34)n2)cc1NC(=O)CCSCC(N)C(=O)O (stereo not shown) | radio-HPLC, co-eluting peaks pooled | human, urine | 0 to 96 h, sample holds 4.16% dose | relative to: dose | excreted amount | 0.07% |
| NC12CNCCNCC(NCc3ccc(CNC(=O)CCCC(=O)NCc4ccc(-c5nncnn5)cc4)cc3)(CNCCNC1)CNCCNC2.[64Cu+2] | OLINDA dosimetry | upper large intestine wall | pretargeting, 24-h interval | – | mean absorbed dose | 0.0411 rad/mCi |
| CC(=O)N[C@H](CC(=O)O)C(=O)N[C@H](Cc1c[nH]c2ccccc12)C(=O)N[C@H](Cc1ccccc1)C(=O)N[C@H](CCCCN)C(=O)N[C@H](C)C(=O)N[C@H](Cc1ccccc1)C(=O)N[C@H](Cc1ccc(O)cc1)C(=O)N[C@H](CC(=O)O)C(=O)N[C@H](CCCCN)C(=O)N[C@@H](C(=O)N[C@H](C)C(=O)N[C@H](CCC(=O)O)C(=O)N[C@H](CCCCN)C(=O)N[C@H](Cc1ccccc1)C(=O)N[C@H](CCCCN)C(=O)N[C@H](CCC(=O)O)C(=O)N[C@H](C)C(=O)N[C@H](Cc1ccccc1)C(N)=O)C(C)C | – | statin-treated high-risk CHD women, plasma | oral, 100 mg daily, day 13, 0 to 8 h, mean, undetectable set to 0 | – | Cmax | 2.25 ng/mL |
| COc1cccc([O-])c1C=NCCCN(C)CCN(C)CCCN=Cc1c([O-])cccc1OC.[67Ga+3] | – | rat | intravenous, 2 h | relative to: heart over liver | tissue uptake ratio | 7.2 ± 1.9 |
| C[Si]1(C[C@@H](CN)CC(=O)O)CCCC1 | – | Sprague-Dawley rat, male, brain | oral, 100 mg/kg, estimated as Cmax x Kp | – | brain Cmax | 8 µM |
| CCCC[C@H](NC(=O)CNC(=O)CNC(=O)CN1CCN(CC(=O)O)CCN(CC(=O)O)CC1)C(=O)N[C@H]1CC(=O)NCCCC[C@@H](C(N)=O)NC(=O)[C@H](Cc2c[nH]c3ccccc23)NC(=O)[C@H](CCCNC(=N)N)NC(=O)[C@@H](Cc2ccccc2)NC(=O)[C@H](Cc2c[nH]cn2)NC1=O [gallium-67 labelled] | – | female C57 mice, B16/F1 melanoma | intravenous, 0.037 MBq, 2 h | relative to: tumour over kidney | tumour to tissue ratio | 3.01 |
| CSCOC1C(=O)C2(C)C(OCSC)CC3OCC3(OC(C)=O)C2C(OC(=O)c2ccccc2)C2(O)CC(OC(=O)C(O)C(C=C(C)C)NC(=O)OC(C)(C)C)C(C)=C1C2(C)C (stereo not shown) | – | female Sprague-Dawley rat, plasma | intravenous, 4 mg/kg | – | half-life | 7.5 h |
| COc1ccc2c(c1)C=C(C(=O)N1C[C@@H](C)O[C@@H](C)C1)Cn1c-2c(C2CCCCC2)c2ccc(C(=O)NS(=O)(=O)N(C)C)cc21 | – | rat, liver | oral, 10 mg/kg, 4 h | – | liver concentration | 33 µM |
| N=C(N)NCCC[C@@H]1NC(=O)[C@H](Cc2c[nH]c3ccccc23)NC(=O)[C@@H](CC2CCCCC2)NC(=O)[C@@H]2CCCN2C(=O)[C@@H](NC(=O)CCc2ccccc2)CCCNC1=O | – | C57BL/6J mice, brain | intraperitoneal, 1 mg/kg, two-compartment model | – | absorption rate constant | 3.81 h⁻¹ |
| Brc1ccc(Nc2nc(NN=Cc3c[nH]c4ccccc34)nc(N3CCOCC3)n2)cc1 | – | rat liver microsomes | in vivo extrapolated | – | hepatic clearance | 8.55 mL/min |
